Measurements of several laboratories.
Every numbered part comes from another study and shows a few of its results, in no order.

Block 1
Target: Interferon regulatory factor 7, full length, phosphomimetic (IRF7, Homo sapiens, UniProt Q92985, residues 1-503, S471D/S472D/S475D/S476D/S477D/S483D/S484D/S487D)
Method: protein-binding microarray
Molecule type: double-stranded DNA, one strand shown
Medium: in vitro
Tested at: 2200 nM top
Notes: 60-bp whole probe
Added: salmon DNA 0.4 mg/ml
Relative to: random background probes
Direction: higher = stronger binding
Measurement: fitted relative affinity
All sequences stand within: GCCTAGCAC … GTCTTGATTCGCTTGACGCTGCTG
Residues (chain): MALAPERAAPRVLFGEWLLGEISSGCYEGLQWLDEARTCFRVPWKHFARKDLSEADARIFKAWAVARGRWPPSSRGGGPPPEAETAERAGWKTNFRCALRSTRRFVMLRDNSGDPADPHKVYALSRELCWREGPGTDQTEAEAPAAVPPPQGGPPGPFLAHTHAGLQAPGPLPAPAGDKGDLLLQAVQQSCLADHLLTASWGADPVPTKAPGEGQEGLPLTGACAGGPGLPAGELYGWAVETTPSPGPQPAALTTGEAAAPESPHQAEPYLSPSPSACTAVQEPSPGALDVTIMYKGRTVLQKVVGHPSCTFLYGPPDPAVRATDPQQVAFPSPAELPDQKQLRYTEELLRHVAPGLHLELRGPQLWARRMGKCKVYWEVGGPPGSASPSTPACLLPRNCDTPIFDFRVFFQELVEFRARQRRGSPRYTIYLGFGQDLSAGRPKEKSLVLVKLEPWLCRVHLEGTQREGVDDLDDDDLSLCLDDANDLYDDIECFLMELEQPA
TTAGGTTTCGACTACCGGTTAGTGCTA: 3.28 z-score
TTAGGACCGCTTTTCCTTTAGTGCTAG: 1.71 z-score
TCACATTTTGTTTTTCAACTGTGCTAG: 2.66 z-score
GGCGGTTTCGGTCTCGGGACGTGCTAG: 6.47 z-score
TCACATTTAGAAAATGGAACTGTGCTA: 0.36 z-score
TCATATATCTGAACCGCACTGTGCTAG: 0.839 z-score
AACTGCATCCCAGGAGCTGGGTGCTAG: -0.234 z-score
TGTCATTTACATTTTAGTAGGTGCTAG: 1.16 z-score
GACGGTATCCTCTTCCTGACGTGCTAG: 1.32 z-score
TCAATCATTGTTTTCAGTTTGTGCTAG: 4.23 z-score
TTAGGACTGGGGTATCGGTTGGTGCTA: -0.54 z-score
TCACTTGTGTTTATTGTACTGTGCTAG: 1.46 z-score
TTTTTTTTTTGTATTTTTGAGTGCTAG: 2.41 z-score
TAAAACATCATTTTTCCCTCGTGCTAG: 0.809 z-score
TTAGGTCTCGGTATCCGTTAGTGCTAG: 0.945 z-score
TCACCTCCCTAATTCTGACTGTGCTAG: 2.09 z-score
TCAGATCTCAGACTGGATTAGTGCTAG: 0.135 z-score
TTAGATTCCATTTTCGATTAGTGCTAG: 7.11 z-score
GACGATCTCAATATCGAGACGTGCTAG: 0.313 z-score

Block 2
Target: Sal-like protein 4, full length isoform B (SALL4, Homo sapiens, UniProt Q9UJQ4-2, residues 1-616)
Method: universal PBM
Molecule type: double-stranded DNA, one strand shown
Medium: in vitro
Tested at: not given
Notes: 8-mer, flanks averaged, mean of replicates
Direction: higher = stronger binding
Measurement: E-score
CCAGTGTC: -0.161
CGTAGGAG: -0.104
AGTTTCTG: -0.147
GACGAAGA: 0.041
GCTTACAA: 0.223
ATGACGAA: 0.186
AGACCAGG: -0.213
CATGTTGA: 0.232
CAATAGTA: 0.136
ATCCTAAG: -0.0801
CGGCGACG: -0.341
CTGGCTGC: -0.31
CTGAGACC: -0.218
CTAATCAA: 0.115
ATTGCTTC: 0.159
CATGTAGG: 0.135
AGATTCTC: -0.0183
ATTGCCTC: 0.0752
GGACAGGA: -0.213

Block 3
Target: Fragile X messenger ribonucleoprotein 1, C-terminal low-complexity region (Fmr1, Mus musculus, UniProt P35922)
Method: RNA Bind-n-Seq
Molecule type: RNA
Medium: in vitro
Tested at: 200 nM
Notes: whole 134-nt RNA, ends assumed
Added: 150 mM LiCl
Relative to: input library
Direction: higher = stronger binding
Measurement: log2 enrichment
All molecules: 7-deaza-guanosine replaces G
All sequences stand within: GGGAGUUCUACAGUCCGACGAUC … UGGAAUUCUCGGGUGUCAAGG
CCUCAAGUCCUGUGCUACACAUCGUAUGUACCGAAUCGGGGCGGGCGGCGGGGAAAGUAUUAUGUUACGCCGUUCGGAUCUGCACUUCCA: -0.0481
ACCAUGCAGGUGGGCAUCUUUGGGAAGUGGGGCAAGGGGGGGAUAGGGAGGGGGGUAACACUUUGGGAACAGGUGGUCACAGGUCGUUUC: 1.33
UUCCUCAAGUCCUGUGCUACACAUCGUAUGUACCGAAUCGGUGGAGGAGGAAAGUAUUAUGUUACGCCGUUCGGAUCUGCACUUCCAGCA: -2.27
UAACUUUAGAGGAGGAUCUGAUGGAUAUGGCAAUGGACGUGGAUUUGGGGAUGGCUAUAAUGGGUAUGGAGGAGGACCUGGAGGUGGCAA: 0.381
UGGCCCUGGUGGCAUGCGGGGAGGAAGAGGUGGCCUCAUGGAUCAUGGUGGUCCCGGUGGAAUGUUCAGAGGUGGCCGUGGUGGAGACAG: -0.155
GCAGGAAGUAAAAACAAAUGGAAAUGCUUCGGAUAGUGGCAGGGGUGGGGGUUGCUGAGGAAAGGGUGGGAUGGGAGUGGGUAAAGAGUU: 1.68
CUCAAGUCCUGUGCUACACAUCGUAUGUACCGAAUCGGAAAAAGGUUUGGAGGAAAGUAUUAUGUUACGCCGUUCGGAUCUGCACUUCCA: -0.988
AAAAUAAGCCUAAGAAAGAAUUAAUUAAAGUUCUGAUUCAGAGGGGAUAUGAUUCGGAUCCUGUGAAGGCCUGGAAAGAAGCCCAGCAAA: -2.45
AAGUCCUGUGCUACACAUCGUAUGUACCGAAUCGGGAAAGGGUUUUUUUGGGAGGGAAAGUAUUAUGUUACGCCGUUCGGAUCUGCACUU: -1.4
CAAGUCCUGUGCUACACAUCGUAUGUACCGAAUCGGAAAAAGGAAAGGUUUUUGGAAAGUAUUAUGUUACGCCGUUCGGAUCUGCACUUC: -1.78
GCAGGAAGUAAAAACAAAUGGAAAUGCUUCGGAUAGUGGCAGGGGUUGGGGUUGCUAAGGAAAGGGUGGGAUGGGAGUGGGUAAAGAGUU: 1.4

Block 4
Target: RNA binding protein fox-1 homolog 2, RRM domain, GST-SBP tag (RBFOX2, Homo sapiens, UniProt O43251-10, residues 100-194)
Method: RNA Bind-n-Seq
Molecule type: RNA
Medium: in vitro
Tested at: 365 nM
Notes: natural RNA segment, single round, ends assumed
Relative to: no-protein control
Direction: higher = stronger binding
Measurement: RBNS enrichment (R)
All sequences stand within: GGGAGUUCUACAGUCCGACGAUC … UGGAAUUCUCGGGUGCCAA
Target sequence (chain): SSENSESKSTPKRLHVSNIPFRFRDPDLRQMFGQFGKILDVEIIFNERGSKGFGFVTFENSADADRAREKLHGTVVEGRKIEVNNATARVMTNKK
AACCACCAUGCCUAUAGCCACAGCAACCCAUUCUUUUGGAGGUUUUAUAGUUCUCCAUUUGUCUCAUGUUCCGAAUGUGAAGUGUCCUAAUGUGUAUUAAAGUCAGAAAA: 0.917
UGCCUGCACCUGCACUCUAGUGACCCUGGGUGCCGCCAGACCCUUCUCUUCUACAAAGACCCCAGCAGGAGUGGGAGGGUCUGCAAUGGCAUCGCCCUGUCCUGCCUUGG: 0.631
UAAAUGCCUUUUUGUCCAUCCCUUUUUUCUUUGUUGUUUUUGUUGAAAACAAACUGGAAACUUGUUUCUUUUUUUGUAUAAAUGAGAGAUUGCAAAUGUAGUGUAUCACU: 1.24
AAGAUAAGAAAAAGAAAAAUAUAUUGUUCAUAAUGUAAAUAAGUGUAUGCUUAUUUAUUUGGGGGGAAAACUAUACAUUAAAGGACCUUUGUCCUAAGCUCUCUCCCAGG: 0.659
CCACCAGCUCUCUCUAUCAUGGAUCUGCACCUUCUCGCCCUUGUCUCUCCUGAGUCAUGACGGGUCAUACUGAUUCUUGUUCCACUGAUGAUUUUCUCUGAUGAGGUCCU: 0.232
CACGCACGCUCUACUUUGAUAUUAAAACCCACAUAACAUAUAUUUAAUAAAUUCUAUCUAUUUUGUUUAGUAGUGUCUCUUUUCUAUUCCAUCCAUGACUACGUAGAAGG: 1.96
AAGAGGCAGAAUCCACCAAAGGCCUUGAACUACCCAUGCUGGGGAAAAGCAUAAAGGGCUGCCUAGUACCGCCCGUUCCCUCCACGCCAGGUGGAGACUACAAGGAGACU: 0.571
UAGUGUGGACUUUUGUGGGCACUGUCUGUCAUUGGCCACCCAGUCACGUACCGAGUGGGCAGUGUCACAGCCAAAGCUACCACUGAGCCACAGCGUAGGUCAUUGCUUGA: 0.251
CUGACAUUUAGUUGAUUAUUUUCUGCUACAGACCUGGUACACUCUGAUUUUAGAUAAAGUAAGCCUAGGUGUUGUCAGCAGGCAGGCUGGGGAGGCCAGUGUUGUGGGCU: 0.533
CUUGCAGCUGUGUCCCAUGUGGCAUCCCAGAGCUGCGCCCUGCUGGUCUCUGUGAGCGCCACGCUGCUGUGCUGGAAAUGCCGCUUUAAAAAGGGAUACCGUGGGACUCU: 0.351
AUUCCAGGAUUUAGGCCUUAUCAUCCCGGCCAGUCUCAGAUGACCUAGCUGGCCCCAGGCUGGGGUCCUAUGCAAAGCAGGAUCCCACUAAUGGGAUUCAGGCAGAAGUG: 0.194
AAAAAACAAACAAAAAAACCAAACCACCUCUACAUAUUAUGGAAAGAAAAUAUUUUUGUCAAUUCUUAUUCUUUUAUAAUUAUGUGGUAUGUAGACUCAUUAAACAAUUC: 0.791

Block 5
Target: Histone acetyltransferase KAT6A, both winged helices, GST fusion (KAT6A, Homo sapiens, UniProt Q92794, residues 1-181)
Method: protein binding microarray
Molecule type: double-stranded DNA, one strand shown
Medium: in vitro
Tested at: not given
Notes: 8-mer, flanks averaged, mean of 2 arrays, mostly near background
Relative to: not given
Direction: higher = stronger binding
Measurement: E-score
Residues (chain): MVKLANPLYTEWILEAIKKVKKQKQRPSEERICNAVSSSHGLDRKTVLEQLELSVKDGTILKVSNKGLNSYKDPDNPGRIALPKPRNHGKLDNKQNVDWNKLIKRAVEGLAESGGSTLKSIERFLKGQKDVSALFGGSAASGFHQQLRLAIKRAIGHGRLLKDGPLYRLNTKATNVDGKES
CACAGGCC: -0.149
ACACTGCG: 0.2
GGAGGAAC: 0.0384
CGGCCATA: 0.0658
AATTATAA: -0.0821
GGCCTACA: -0.0397
ATAGGTGG: -0.136
CGTTATGC: 0.0319
CTCTGACA: -0.0612
AGATTAAT: -0.118
AGTGACGG: 0.126
CGTATCAA: 0.0274
CCATCACA: -0.196
GGGAGTTA: -0.111
GGATTAAA: -0.013
GCTGAGCA: -0.122
CCCTCGAG: -0.179
CACTGCTC: -0.147
ACGTAGAG: -0.0855
ATTCCAGA: -0.0447
GGACATTA: 0.158
TTCGAGAA: 0.0526
